Measurements from different studies.
Every numbered part comes from another study and shows a few of its results, in no order.
Sequence of UniProt Q92630 (whole entry, looked up): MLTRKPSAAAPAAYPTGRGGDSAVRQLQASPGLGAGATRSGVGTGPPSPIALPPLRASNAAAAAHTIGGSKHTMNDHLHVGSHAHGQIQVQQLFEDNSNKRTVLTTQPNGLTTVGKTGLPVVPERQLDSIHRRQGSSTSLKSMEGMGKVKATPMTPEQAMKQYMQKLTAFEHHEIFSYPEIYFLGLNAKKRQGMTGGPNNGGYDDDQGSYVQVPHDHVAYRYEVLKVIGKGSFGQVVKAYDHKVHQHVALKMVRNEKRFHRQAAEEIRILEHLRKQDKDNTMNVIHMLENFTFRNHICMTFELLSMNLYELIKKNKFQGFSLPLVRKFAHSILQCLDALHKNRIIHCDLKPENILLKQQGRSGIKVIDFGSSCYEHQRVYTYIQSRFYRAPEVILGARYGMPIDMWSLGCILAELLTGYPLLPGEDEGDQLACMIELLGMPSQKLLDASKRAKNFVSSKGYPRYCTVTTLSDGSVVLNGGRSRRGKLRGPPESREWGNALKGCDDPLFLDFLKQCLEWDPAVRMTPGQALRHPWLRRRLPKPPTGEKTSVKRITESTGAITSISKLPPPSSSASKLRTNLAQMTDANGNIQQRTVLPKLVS
Sequence of UniProt Q9H2X6 (whole entry, looked up): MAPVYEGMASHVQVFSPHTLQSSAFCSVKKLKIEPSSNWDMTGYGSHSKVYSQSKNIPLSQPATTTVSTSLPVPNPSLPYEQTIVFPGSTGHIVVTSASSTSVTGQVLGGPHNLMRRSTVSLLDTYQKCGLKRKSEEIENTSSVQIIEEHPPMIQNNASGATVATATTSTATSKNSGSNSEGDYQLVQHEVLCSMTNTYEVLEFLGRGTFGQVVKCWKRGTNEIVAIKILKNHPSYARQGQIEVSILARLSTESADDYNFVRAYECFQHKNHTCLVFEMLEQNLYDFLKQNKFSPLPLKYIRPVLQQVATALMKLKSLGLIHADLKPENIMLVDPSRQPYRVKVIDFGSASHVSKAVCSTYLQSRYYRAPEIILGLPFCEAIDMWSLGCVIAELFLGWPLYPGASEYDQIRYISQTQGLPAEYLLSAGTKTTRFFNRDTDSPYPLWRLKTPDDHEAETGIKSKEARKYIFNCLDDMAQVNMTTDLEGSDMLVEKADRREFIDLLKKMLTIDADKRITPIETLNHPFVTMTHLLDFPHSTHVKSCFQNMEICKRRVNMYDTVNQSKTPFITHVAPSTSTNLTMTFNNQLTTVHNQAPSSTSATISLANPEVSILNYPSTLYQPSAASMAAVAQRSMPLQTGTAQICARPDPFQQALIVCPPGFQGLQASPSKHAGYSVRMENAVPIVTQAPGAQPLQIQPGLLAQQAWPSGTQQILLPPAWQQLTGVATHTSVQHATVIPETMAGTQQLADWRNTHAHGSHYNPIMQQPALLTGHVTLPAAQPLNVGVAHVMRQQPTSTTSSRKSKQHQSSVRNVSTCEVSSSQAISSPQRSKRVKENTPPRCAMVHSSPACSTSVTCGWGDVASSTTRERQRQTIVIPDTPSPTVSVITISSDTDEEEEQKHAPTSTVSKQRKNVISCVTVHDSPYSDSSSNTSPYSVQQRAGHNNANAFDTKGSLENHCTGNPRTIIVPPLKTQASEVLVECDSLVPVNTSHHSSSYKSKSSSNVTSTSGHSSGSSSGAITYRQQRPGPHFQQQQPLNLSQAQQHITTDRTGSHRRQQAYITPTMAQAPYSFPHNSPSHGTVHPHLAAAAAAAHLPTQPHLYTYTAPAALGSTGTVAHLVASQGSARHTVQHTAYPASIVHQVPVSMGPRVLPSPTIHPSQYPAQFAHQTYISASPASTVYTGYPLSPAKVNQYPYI

Series 1
Host: mouse
Medium: microsomes or S9
Tested at: 2 µM
Time: 0.5 h
Measurement: remaining compound
SMILES = Cc1c(O)ccc(C(=O)Cc2ccccc2F)c1O; result = 14.1%
SMILES = CCOC(=O)C1CCN(c2nc(-c3ccc(S(C)(=O)=O)cc3)ncc2OC)CC1; result = 1.84%
SMILES = CC(Oc1cccnc1N)c1nnc2ccc(Cl)nn12 (stereo not drawn); result = 64.9%
SMILES = C=C(C)[C@@H]1CCC2=CC(=O)C[C@@H](C)[C@]2(C)C1; result = 10.9%
SMILES = O=C(Nc1ccc(Oc2cccnc2)nc1)c1c[nH]c2ccccc12; result = 76.3%
SMILES = CNc1nc(Nc2ccccc2C)c(C#N)c2c1COC(C)(C)C2; result = 5.01%

Series 2
SMILES: O=C(Nc1cnn(-c2csc(C(=O)NC3COC3)c2)c1)Nc1c(F)cccc1Cl
Read-out: enzyme activity
Tested at: 5 µM
Measurement: remaining activity
target = DCLK1 (Homo sapiens, UniProt O15075); baseline = untreated control; result = 83.3%
target = EPHA1 (Homo sapiens, UniProt P21709); baseline = untreated control; result = 87.5%
target = HIPK2 (Homo sapiens, UniProt Q9H2X6); baseline = untreated control; result = 92.5%
target = CAMK1G (Homo sapiens, UniProt Q96NX5); mode = inhibitor; result = 94%
target = FGFR1 (Homo sapiens, UniProt P11362); baseline = untreated control; result = 93.2%

Series 3
Structure (SMILES): O=C(NS(=O)(=O)c1ccc(NCC2CCOCC2)c([N+](=O)[O-])c1)c1ccc(N2CCN(Cc3ccc(C(F)(F)F)cc3-c3ccc(Cl)cc3)CC2)cc1Oc1cnc2[nH]ccc2c1
Read-out: cell-free assay
Technique: competition with immobilised ligand
Tested at: 1 µM
Measurement: remaining binding
target = MYLK3 (Homo sapiens, UniProt Q32MK0); result = 100%
target = CAMK2G (Homo sapiens, UniProt Q13555); result = 88%
target = ACVRL1 (Homo sapiens, UniProt P37023); result = 77%
target = RIOK1 (Homo sapiens, UniProt Q9BRS2); result = 100%
target = HIPK4 (Homo sapiens, UniProt Q8NE63); result = 98%
target = FGR (Homo sapiens, UniProt P09769); result = 100%
target = NTRK3 (Homo sapiens, UniProt Q16288); result = 100%
target = PRKCQ (Homo sapiens, UniProt Q04759); result = 100%
target = PLK4 (Homo sapiens, UniProt O00444); result = 98%
target = PRKAA1 (Homo sapiens, UniProt Q13131); result = 84%
target = FGFR3 (Homo sapiens, UniProt P22607); result = 100%
target = DYRK2 (Homo sapiens, UniProt Q92630); result = 100%
target = LRRK2 (Homo sapiens, UniProt Q5S007); result = 100%
target = MARK1 (Homo sapiens, UniProt Q9P0L2); result = 81%
target = COQ8A (Homo sapiens, UniProt Q8NI60); result = 100%
target = MAPK1 (Homo sapiens, UniProt P28482); result = 87%

Series 4
Target: DNA polymerase theta, ATPase domain (POLQ, Homo sapiens, UniProt O75417)
Sequence of UniProt O75417 (whole entry, unmodified, looked up): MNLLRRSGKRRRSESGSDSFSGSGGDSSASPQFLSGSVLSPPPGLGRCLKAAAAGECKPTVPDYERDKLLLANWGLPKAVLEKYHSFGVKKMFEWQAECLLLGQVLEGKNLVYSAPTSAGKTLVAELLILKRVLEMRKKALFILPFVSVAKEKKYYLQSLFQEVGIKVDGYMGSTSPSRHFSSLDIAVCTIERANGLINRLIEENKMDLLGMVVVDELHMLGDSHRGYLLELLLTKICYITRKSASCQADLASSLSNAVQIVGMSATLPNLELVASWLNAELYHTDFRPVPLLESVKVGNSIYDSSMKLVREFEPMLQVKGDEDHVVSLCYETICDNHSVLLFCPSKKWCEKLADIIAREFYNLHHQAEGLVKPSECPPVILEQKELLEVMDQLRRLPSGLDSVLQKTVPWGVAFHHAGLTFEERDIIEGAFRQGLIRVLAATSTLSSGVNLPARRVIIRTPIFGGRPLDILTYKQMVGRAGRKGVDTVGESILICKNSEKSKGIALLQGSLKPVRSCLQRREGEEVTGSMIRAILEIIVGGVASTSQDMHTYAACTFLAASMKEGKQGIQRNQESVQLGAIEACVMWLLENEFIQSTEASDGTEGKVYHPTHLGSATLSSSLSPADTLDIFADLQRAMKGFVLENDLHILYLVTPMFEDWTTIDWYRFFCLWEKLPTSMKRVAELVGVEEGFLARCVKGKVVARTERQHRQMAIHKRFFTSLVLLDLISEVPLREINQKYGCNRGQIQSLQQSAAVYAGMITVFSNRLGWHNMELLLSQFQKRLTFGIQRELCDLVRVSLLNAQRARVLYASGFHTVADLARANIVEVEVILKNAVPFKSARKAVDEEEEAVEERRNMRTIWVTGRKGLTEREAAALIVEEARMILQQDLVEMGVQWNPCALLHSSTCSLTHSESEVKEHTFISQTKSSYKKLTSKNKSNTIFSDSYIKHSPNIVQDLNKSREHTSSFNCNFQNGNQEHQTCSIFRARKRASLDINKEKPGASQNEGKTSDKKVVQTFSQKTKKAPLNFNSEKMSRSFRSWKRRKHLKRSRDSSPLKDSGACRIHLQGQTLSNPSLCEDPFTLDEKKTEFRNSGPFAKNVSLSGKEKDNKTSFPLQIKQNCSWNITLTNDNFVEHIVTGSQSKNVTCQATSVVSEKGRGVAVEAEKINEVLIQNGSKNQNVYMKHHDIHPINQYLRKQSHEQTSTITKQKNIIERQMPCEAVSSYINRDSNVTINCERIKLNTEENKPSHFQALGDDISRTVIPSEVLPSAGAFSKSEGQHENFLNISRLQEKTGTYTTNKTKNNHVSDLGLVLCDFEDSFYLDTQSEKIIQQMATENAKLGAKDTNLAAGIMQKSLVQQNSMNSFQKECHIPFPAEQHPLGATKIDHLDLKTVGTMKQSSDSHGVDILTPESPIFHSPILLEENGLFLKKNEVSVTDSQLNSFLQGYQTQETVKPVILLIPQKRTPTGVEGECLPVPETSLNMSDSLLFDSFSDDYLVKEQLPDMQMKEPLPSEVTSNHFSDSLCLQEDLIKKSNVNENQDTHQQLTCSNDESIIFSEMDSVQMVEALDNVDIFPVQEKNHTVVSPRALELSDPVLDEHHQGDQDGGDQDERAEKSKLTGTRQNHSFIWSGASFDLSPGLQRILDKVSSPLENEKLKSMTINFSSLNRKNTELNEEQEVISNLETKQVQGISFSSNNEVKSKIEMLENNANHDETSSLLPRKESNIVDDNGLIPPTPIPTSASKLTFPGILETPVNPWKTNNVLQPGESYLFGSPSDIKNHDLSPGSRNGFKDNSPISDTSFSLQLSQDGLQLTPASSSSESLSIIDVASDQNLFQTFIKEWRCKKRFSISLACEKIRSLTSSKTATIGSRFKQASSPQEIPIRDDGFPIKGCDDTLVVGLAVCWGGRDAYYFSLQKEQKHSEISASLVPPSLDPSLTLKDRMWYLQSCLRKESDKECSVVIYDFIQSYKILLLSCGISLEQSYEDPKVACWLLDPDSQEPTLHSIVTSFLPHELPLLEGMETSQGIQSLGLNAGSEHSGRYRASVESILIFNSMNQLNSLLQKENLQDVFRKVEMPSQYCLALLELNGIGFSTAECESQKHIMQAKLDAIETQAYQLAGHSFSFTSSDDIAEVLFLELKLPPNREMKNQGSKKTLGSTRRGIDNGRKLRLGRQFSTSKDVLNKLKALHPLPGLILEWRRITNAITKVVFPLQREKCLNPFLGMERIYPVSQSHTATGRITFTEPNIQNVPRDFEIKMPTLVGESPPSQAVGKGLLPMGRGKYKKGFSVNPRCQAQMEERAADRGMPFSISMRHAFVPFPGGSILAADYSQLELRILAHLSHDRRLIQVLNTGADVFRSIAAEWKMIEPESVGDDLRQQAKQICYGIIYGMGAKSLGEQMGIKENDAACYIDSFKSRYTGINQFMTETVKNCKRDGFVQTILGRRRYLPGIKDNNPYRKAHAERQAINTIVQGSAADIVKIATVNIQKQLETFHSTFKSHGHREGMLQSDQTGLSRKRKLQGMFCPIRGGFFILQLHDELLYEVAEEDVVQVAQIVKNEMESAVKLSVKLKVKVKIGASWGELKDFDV
Read-out: enzyme activity
Mode: inhibitor
Tested at: 77 µM
Baseline: untreated
Measurement: remaining activity
SMILES = Nc1ncnc2c1ncn2[C@@H]1O[C@H](COP(=O)(O)CP(=O)(O)OP(=O)(O)O)[C@@H](O)[C@H]1O; result = 102%
SMILES = COc1ccc(C(=O)Nc2sc3c(c2C(N)=O)CCCC3)cc1OC; result = 113%
SMILES = OC[C@@H](O)[C@@H](O)CO; result = 95%
SMILES = Nc1ncn([C@H]2C[C@H](O)[C@@H](CO)O2)c(=O)n1; result = 101%

Further values, each from its own experiment
Target: Calcium/calmodulin-dependent protein kinase type II subunit alpha (CAMK2A, Homo sapiens, UniProt Q9UQM7)
Sequence of UniProt Q9UQM7 (whole entry, looked up): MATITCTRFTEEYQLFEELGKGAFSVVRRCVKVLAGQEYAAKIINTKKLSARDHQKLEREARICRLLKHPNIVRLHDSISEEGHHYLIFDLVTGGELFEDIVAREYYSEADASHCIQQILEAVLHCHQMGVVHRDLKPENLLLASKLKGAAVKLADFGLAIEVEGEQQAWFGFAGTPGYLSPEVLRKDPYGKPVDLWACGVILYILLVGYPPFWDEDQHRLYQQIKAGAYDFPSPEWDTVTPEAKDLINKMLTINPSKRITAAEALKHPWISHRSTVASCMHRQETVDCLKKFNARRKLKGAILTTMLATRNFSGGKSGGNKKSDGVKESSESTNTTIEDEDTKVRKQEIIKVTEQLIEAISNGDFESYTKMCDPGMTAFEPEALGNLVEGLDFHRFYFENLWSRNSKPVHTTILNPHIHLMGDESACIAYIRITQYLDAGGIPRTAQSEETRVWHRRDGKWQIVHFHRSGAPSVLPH
Read-out: enzyme activity
Mode: inhibitor
Tested at: 10 µM
SMILES = C[C@@H]1C[C@H]2OC(=O)[C@@]3(C)CCC[C@@](C)([C@@H]23)[C@@]1(O)CCc1ccoc1; inhibition = 30%
SMILES = C#CCC(Cc1cnc2nc(N)nc(N)c2n1)c1ccc(C(=O)N[C@@H](CCC(=O)O)C(=O)O)cc1 (stereo partly drawn); inhibition = -6%
